Results gathered from unrelated publications.
Each numbered part is a random draw from the data of one study; scales do not carry over between parts. Positions count from the first letter of the parent shown.

Study 1
Target: CCND2, cyclin fold, Cln2 fusion (human)
Technique: yeast growth competition, sequencing
Sample: yeast
Setting: weak parent motif
Relative to: not given
Reading: higher = stronger binding
Endpoint: normalised enrichment score
Starting sequence: RB1 docking peptide (human); PKPLKKLRFDIEG; partner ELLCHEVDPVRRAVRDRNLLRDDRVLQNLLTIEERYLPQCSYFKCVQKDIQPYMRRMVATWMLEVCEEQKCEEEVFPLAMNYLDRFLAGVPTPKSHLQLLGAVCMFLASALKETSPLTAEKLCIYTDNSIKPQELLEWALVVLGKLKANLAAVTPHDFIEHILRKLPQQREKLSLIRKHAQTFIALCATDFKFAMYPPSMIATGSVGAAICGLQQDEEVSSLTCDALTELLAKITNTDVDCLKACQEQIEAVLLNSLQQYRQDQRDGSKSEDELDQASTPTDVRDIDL
P1R: 0.00515
D10F: -0.0783
P1A: 0.197
I11T: -0.166
K5A L7A: -0.128
K2H: 0.218
K5R: 0.00419
D10R: 0.602
I11H: 0.491
L7Y: -0.0589
R8V: 0.514
I11R: -0.396
F9D: 0.42
P3Q: 0.17
P1H: 0.412
E12F: 0.221

Study 2
Target: Sal-like protein 4, full length isoform B (SALL4, Homo sapiens, UniProt Q9UJQ4-2, residues 1-616)
Technique: universal PBM
Form: double-stranded DNA, one strand shown
Sample: in vitro
Concentration: not given
Setting: 8-mer, flanks averaged, mean of replicates
Reading: higher = stronger binding
Endpoint: E-score
Construct (chain): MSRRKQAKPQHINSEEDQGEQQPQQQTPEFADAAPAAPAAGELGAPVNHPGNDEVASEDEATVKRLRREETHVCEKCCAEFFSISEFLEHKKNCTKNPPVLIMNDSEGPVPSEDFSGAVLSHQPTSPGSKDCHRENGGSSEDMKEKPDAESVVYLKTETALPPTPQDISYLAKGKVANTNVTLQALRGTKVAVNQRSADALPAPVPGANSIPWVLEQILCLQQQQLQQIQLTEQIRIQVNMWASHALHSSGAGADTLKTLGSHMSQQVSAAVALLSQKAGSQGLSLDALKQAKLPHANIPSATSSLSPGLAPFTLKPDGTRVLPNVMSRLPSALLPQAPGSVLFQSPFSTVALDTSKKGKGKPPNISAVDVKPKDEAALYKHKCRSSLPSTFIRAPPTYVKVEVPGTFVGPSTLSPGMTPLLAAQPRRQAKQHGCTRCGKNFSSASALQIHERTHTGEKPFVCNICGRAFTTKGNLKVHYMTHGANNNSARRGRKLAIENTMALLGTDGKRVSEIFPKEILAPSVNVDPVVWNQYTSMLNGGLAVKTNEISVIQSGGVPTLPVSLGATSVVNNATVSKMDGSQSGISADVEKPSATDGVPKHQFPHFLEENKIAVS
AAGTTGGA: 0.106
AATTGCGT: 0.0359
AAGCGACA: -0.111
AATTTTAG: 0.273
AGGTTCCG: -0.117
CATCGGTA: 0.0685
CGCTCCAA: -0.16
AACATGCG: 0.0153
CAATGATG: 0.135
GACCTAAC: -0.101
GGTAGCGA: -0.0834
CGCAAATC: -0.0143
TGTCCACA: 0.0872
ACAATACC: 0.212
GCGGAAAA: 0.172
GACAACCA: 0.0354
GAGCCTAC: -0.162
ATTGTCCA: 0.163
AAGATTCT: -0.0132
TAGCTCGA: -0.191
CACCCGAG: -0.273
CCGACGAC: -0.121
ATCCAACA: 0.161
CTTCCGCC: -0.147
AACTAAAG: 0.223

Study 3
Target: Ras GTPase-activating protein-binding protein 1, C-terminal RGG region (G3BP1, Homo sapiens, UniProt Q13283)
UniProt Q13283, sequence (whole entry, looked up): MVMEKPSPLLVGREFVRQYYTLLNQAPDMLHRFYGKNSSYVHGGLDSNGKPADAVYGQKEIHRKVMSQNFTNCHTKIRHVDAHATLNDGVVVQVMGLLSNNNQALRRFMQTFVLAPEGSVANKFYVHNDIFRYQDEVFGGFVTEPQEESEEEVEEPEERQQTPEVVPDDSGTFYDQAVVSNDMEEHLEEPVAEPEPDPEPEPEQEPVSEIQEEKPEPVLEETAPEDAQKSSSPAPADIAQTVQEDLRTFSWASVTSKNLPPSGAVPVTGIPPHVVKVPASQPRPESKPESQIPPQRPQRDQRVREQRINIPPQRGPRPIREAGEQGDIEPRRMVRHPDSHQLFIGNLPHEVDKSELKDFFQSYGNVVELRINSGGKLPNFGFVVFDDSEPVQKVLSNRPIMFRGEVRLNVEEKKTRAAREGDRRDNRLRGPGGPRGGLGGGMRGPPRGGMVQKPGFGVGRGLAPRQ
Technique: RNA Bind-n-Seq
Form: RNA
Sample: in vitro
Concentration: 1 µM
Setting: whole 134-nt RNA, ends assumed
Added: 150 mM KCl
Relative to: input library
Reading: higher = stronger binding
Endpoint: log2 enrichment
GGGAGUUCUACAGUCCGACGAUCUGCUAGGACUUGAUGGAUCACUAGUUUUUCUGGUAAGUAAAACUAAUUUUUUUUUUUUUUUUUUGAGACGGAAUCUCACUCUGUCACCCAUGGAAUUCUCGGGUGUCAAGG: 0.458
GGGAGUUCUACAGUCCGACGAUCGUCCUGUGCUACACAUCGUAUGUACCGAAUCGGGCCCCCGGGCCCCCGGGGCCCCCGGAAAGUAUUAUGUUACGCCGUUCGGAUCUGCACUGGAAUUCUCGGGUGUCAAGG: -1.85
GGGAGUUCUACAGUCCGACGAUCCACAGACAACACGCACCCACACAGACACAGAGGAAAGGGGUUGGGAUGGGGACAGGGUGCACAGCAGGGCGGGGUAGGACCCCAGCCCCUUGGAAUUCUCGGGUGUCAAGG: -0.357
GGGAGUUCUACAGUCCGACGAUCUGGGAGAUGGAUUUUGUUUAUUUUUUUAGCUCAUUUCCAGGGGUGGGAAUUUUUUUUUAAUAUGUGUCAUGAAUAAAGUUGUUUUUGAAAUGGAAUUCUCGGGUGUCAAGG: 3.33
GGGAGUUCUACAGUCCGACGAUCAAGUCCUGUGCUACACAUCGUAUGUACCGAAUCGUGUGUGUGUGUGUGUGUGUGUGUAAAGUAUUAUGUUACGCCGUUCGGAUCUGCACUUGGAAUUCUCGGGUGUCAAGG: 1.42
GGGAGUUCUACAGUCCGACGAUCGCAGGAAGUAAAAACAAAUGGAAAUGCUUCGGAUAGUGGCAGGGGUGGGGGUUGCUGAGGAAAGGGUGGGAUGGGAGUGGGUAAAGAGUUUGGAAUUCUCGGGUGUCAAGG: 2.11
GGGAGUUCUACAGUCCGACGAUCAGUCCUGUGCUACACAUCGUAUGUACCGAAUCGGAAAAAGGAAAAAAAGGUUUUUGGAAAGUAUUAUGUUACGCCGUUCGGAUCUGCACUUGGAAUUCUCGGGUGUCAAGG: -2.3
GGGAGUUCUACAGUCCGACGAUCUUCUCCUGCCCCGAAGCUCGCUGUGCGUGUGCGUGUGUGUGUCCCUCCGCCAACGCCGCCACCUCAGCCCGGCAAAUGAACUCCGUCCGAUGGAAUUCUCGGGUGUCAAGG: 1.72
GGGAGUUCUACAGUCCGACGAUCUGGCCCUGGUGGCAUGCGGGGAGGAAGAGGUGGCCUCAUGGAUCGUGGUGGUCCCGGUGGAAUGUUCAGAGGUGGCCGUGGUGGAUACAGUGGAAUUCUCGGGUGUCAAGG: 2.42

Study 4
Target: Histone acetyltransferase KAT6A, winged helix 2, GST fusion (KAT6A, Homo sapiens, UniProt Q92794, residues 85-181)
Technique: protein binding microarray
Form: double-stranded DNA, one strand shown
Sample: in vitro
Concentration: not given
Setting: 8-mer, flanks averaged, mean of 2 arrays, mostly near background
Relative to: not given
Reading: higher = stronger binding
Endpoint: E-score
Construct (chain): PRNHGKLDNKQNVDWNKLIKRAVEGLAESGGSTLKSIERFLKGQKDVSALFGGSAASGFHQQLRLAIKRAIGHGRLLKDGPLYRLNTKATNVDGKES
TATCGGCA: 0.0921
AGGGCTTC: 0.0406
ACGGAATG: -0.217
CTCTTGTC: -0.0206
GGATAAAC: 0.164
CAGGCGAG: 0.182
GGGCGCAC: 0.0367
CAGTTCAA: -0.151
AAGTTCAC: -0.00268
TAATTGGA: 0.0814
AGAAGTCG: -0.168
CCGTTCCC: 0.175
ATGAGACG: -0.162
CGAAGTCA: -0.111
GCGTCTCA: -0.0255
CGCTGAAC: 0.122
AGAATGCA: 0.0862
CCAAGTAC: -0.126
GCGTCCGA: 0.173
GTAGATGA: -0.027
TGACAACA: -0.103
GGTACGAA: 0.105
GGGACCCC: 0.018
TGACCCCA: -0.0347
GAAGTCTA: -0.264

Study 5
Target: ABI1, truncated, D143A, DHFR fusion (Arabidopsis thaliana)
Technique: DHFR PCA, deep sequencing
Sample: yeast
Setting: methotrexate growth selection, single substitutions
Added: (+)-ABA 0 µM
Relative to: wild-type fitted maximum
Reading: higher = stronger binding
Endpoint: relative binding score
Starting sequence: PYL1, truncated, DHFR fusion (Arabidopsis thaliana); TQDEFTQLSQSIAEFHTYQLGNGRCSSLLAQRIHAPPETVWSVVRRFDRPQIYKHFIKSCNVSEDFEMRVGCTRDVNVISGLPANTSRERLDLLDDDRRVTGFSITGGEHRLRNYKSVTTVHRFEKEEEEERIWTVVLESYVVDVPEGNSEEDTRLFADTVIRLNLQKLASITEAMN
V136L: 15.4%
D75L: 27.9%
G23I: 3.75%
E38C: 0.178%
D144N: 0.328%
C60M: -2.42%
D75C: 10.2%
E125F: 11.1%
E131I: 16%
E128P: 6.07%
S150W: 3.17%
G71Y: -0.688%
E152S: 6.68%
G148I: -20.9%
S150M: 2.89%
G23K: 9.4%
R32A: 17.2%

For quick reference, copied from above (study 1):
D10F: -0.0783
I11T: -0.166
P1A: 0.197
I11H: 0.491
F9D: 0.42
R8V: 0.514
I11R: -0.396
